Measurements gathered from unrelated publications.
Lines come from different studies, so protocols differ. Numbers after ± are the reported error.

The half-life of `C=CC(=O)Nc1ccc(-n2nc3c(=O)[nH]nc(N)c3c2-c2oc3ccc(Br)cc3c2C)cc1` is reported as 2.71 h (BALB/c nude mouse, whole blood; 1 µM, 37 °C).
`C/C(=N\Nc1ncnc2sc3c(c12)CCCC3)c1cc(O)ccc1O` gave a half-life of 3.29 h (ICR mouse, plasma; oral, 30 mg/kg).
`O=C(c1ccccc1)N1C(c2ccc(OCC3CCN(CCCF)C3)cc2)c2ccc(O)cc2CC12CC2` (stereo not shown) gave a half-life of 4.02 h (C57BL/6J mouse, plasma; oral, 25 mg/kg, group mean).
The half-life of `C#CCOc1ccc(C(=O)c2ccc(NC(=O)C(=O)NCCc3ccc(OC)cc3)cc2)cc1` is reported as 2.1 h (CD-1 mouse, mouse liver S9 fraction; 2 µM).
`CCC1(CC)CC(=O)N(C2CCOc3ccc(C(=O)NC4CC(C)(C)Oc5ccccc54)cc32)C(=N)N1` (stereo not shown) has a half-life of 5.7 ± 0.6 h (C57BL/6 mouse male, plasma).
The half-life of `C=C1CN(C(=N)N)CC2Nc3c(F)cc(Br)cc3C12CCNS(=O)(=O)c1ccc(Cl)cc1.O=C(O)C(F)(F)F` (stereo not shown) is reported as 2.5 h (mouse; intraperitoneal, 30 mg/kg).
The half-life of `O=S(=O)(NCc1ccncc1)c1ccc(C2CCCCC2)cc1` is reported as 0.5 h (C57BL/6J mouse, male, plasma; intraperitoneal, 0.3 mg/kg).
`O=[N][Fe]1([N]=O)[S](CCO)[Fe]([N]=O)([N]=O)[S]1CCO` has a half-life of 0.94 ± 0.19 h (C57BL/6JNarl mouse, plasma; oral, 13.25 mg/kg).
The half-life of `CN(Cc1cc(C2CC2)on1)C(=O)c1cccc(-c2ccc(F)cc2)c1` is reported as 0.197 h (ICR/CD-1 mouse, male, liver microsomes; 2 µM, pH 7.5, without 1-aminobenzotriazole).
`O=c1c(-c2cnn(-c3ccc(Cl)cc3)c2)c(C(F)(F)F)oc2c(O)c(O)ccc12` has a half-life of 9.6 h (mouse; intraperitoneal, 100 mg/kg, DMSO vehicle).
`O=C(NS(=O)(=O)c1cccs1)c1cc2ccccc2n1Cc1ccc(Br)c2ccccc12` gave a half-life of 0.84 h (mouse, plasma; oral, 1 mg/kg).
The half-life of `C=CC(=O)Nc1ccc(-n2nc3c(=O)[nH]nc(N)c3c2-c2oc3ccc(C)cc3c2C)cc1` is reported as 1.93 h (BALB/c nude mouse, whole blood; 1 µM, 37 °C).
The half-life of `Cc1ccc(=O)n(-c2ccc(O)cc2)c1` is reported as 1.96 ± 0.38 h (BALB/c mouse, plasma; oral, 1.0 mmol/kg).
`O=C1CCC(N2Cc3cc(C(=O)O)c(F)cc3C2=O)C(=O)N1` (stereo not shown) gave a half-life of 1.8 ± 0.9 h (male CD-1 mouse, plasma; oral, 10 mg/kg of parent drug).
`Cc1ccc2oc(-c3c4c(N)n[nH]c(=O)c4nn3-c3ccc(NC(=O)/C=C/CN(C)C)cc3)c(C)c2c1` gave a half-life of 1.96 h (BALB/c nude mouse, whole blood; 1 µM, 37 °C).
For `O=S(=O)(N[C@H]1CCC[C@@H](N2c3ccccc3CCc3ccccc32)[C@@H]1O)c1ccc(OC(F)(F)F)cc1`, the half-life was 3.6 h (mouse, plasma; oral, 100 mg/kg, suspension).

A few entries again:
`C/C(=N\Nc1ncnc2sc3c(c12)CCCC3)c1cc(O)ccc1O` gave a half-life of 3.29 h (ICR mouse, plasma; oral, 30 mg/kg).
`O=C(c1ccccc1)N1C(c2ccc(OCC3CCN(CCCF)C3)cc2)c2ccc(O)cc2CC12CC2` (stereo not shown) gave a half-life of 4.02 h (C57BL/6J mouse, plasma; oral, 25 mg/kg, group mean).
`CCC1(CC)CC(=O)N(C2CCOc3ccc(C(=O)NC4CC(C)(C)Oc5ccccc54)cc32)C(=N)N1` (stereo not shown) has a half-life of 5.7 ± 0.6 h (C57BL/6 mouse male, plasma).
